Measurements from different studies.
Lines come from different studies, so protocols differ.
Organism: Escherichia coli

Compound | assay | test system | conditions | scale | quantity | value
CC(C)C[C@@H]1NC(=O)[C@H](CCCCN)NC(=O)CNC(=O)[C@H]2CCCN2C(=O)[C@H](CCCCN)NC(=O)[C@H](CC(C)C)NC(=O)[C@H](CCCCN)NC(=O)[C@H](CC(C)C)NC(=O)[C@H](CCCCN)NC(=O)C(N)CCC=CCCC(C(N)=O)NC(=O)[C@H](CCCCN)NC(=O)[C@H](CC(C)C)NC(=O)[C@H](CCCCN)NC1=O (stereo partly shown) | – | ATCC 25922 | 2× MIC | – | time to complete killing | ≤ 3 h
CCCCCCCCCC1N=C(N)N=C(N)N1c1ccc(Cl)cc1.Cl (racemic) | broth microdilution | ATCC 25922 | with: 7.4 mg/mL thymidine | – | MIC90 | 64 µM
CC(CCCOC(=O)CCC[N+](C)(C)C)C1CCC2C3CCC4CC(OC(=O)CCC[N+](C)(C)C)CCC4(C)C3CC(OC(=O)CCC[N+](C)(C)C)C12C (stereo not shown) | outer membrane permeabilization, nitrocefin hydrolysis | – | 90 min | – | permeabilizing concentration | ≥ 15.6 µg/mL
c1ccc(CN2CCOCCOCCN(CCCCCCCCCCCCN3CCOCCOCCN(CCCCCCCCCCCCN4CCOCCOCCN(Cc5ccccc5)CCOCCOCC4)CCOCCOCC3)CCOCCOCC2)cc1 | tetracycline MIC, checkerboard | tetracycline-resistant (pBR322) | 1/2 MIC, with: tetracycline | relative to: MIC alone over combination | fold enhancement | 16 fold
CC[C@H](C)[C@H](NC(=O)CNC(=O)[C@H](CC(N)=O)NC(=O)[C@H](CCCNC(=N)N)NC(=O)[C@@H](NC(=O)[C@H](CC(N)=O)NC(=O)[C@H](CCCNC(=N)N)NC(=O)CNC(=O)[C@H](CCSC)NC(=O)[C@H](CCCCN)NC(=O)[C@H](CCC(=O)O)NC(=O)[C@@H](NC(=O)[C@H](CCCCN)NC(=O)[C@H](CCCCN)NC(=O)[C@H](Cc1ccccc1)NC(=O)[C@@H](NC(=O)[C@H](CCCCN)NC(=O)[C@H](Cc1c[nH]c2ccccc12)NC(=O)[C@@H](N)CCCCN)C(C)C)[C@@H](C)CC)[C@@H](C)CC)C(=O)N[C@H](C(=O)N[C@@H](CCCCN)C(=O)N[C@@H](C)C(=O)NCC(=O)N1CCC[C@H]1C(=O)N[C@@H](C)C(=O)N[C@H](C(=O)N[C@@H](C)C(=O)N[C@H](C(=O)N[C@@H](CC(C)C)C(=O)NCC(=O)N[C@@H](CCC(=O)O)C(=O)N[C@@H](C)C(=O)N[C@@H](CCCCN)C(=O)N[C@@H](C)C(=O)N[C@@H](CC(C)C)C(N)=O)C(C)C)[C@@H](C)CC)C(C)C | LIVE/DEAD staining | 10 mM phosphate buffer | MIC, 30 min, pH 7.4, 37 °C | – | dead cells | < 30%
CC(=O)[O-].O.[Cu+2].[O-]c1ccc(Br)cc1C=NCCN1CCOCC1 | – | – | 20 µL of 100 µM per disc | – | inhibition zone diameter | 18 mm
COc1c2c(cc3oc(=O)cc(-c4ccccc4)c13)C(=O)c1cc(C)cc(O)c1C2=O | – | MTCC 739 | 100 µg/disc | – | inhibition zone diameter | 14 mm
Fc1ccc(CSc2nnc(C34CC5CC(CC(C5)C3)C4)n2-c2ccccc2)cc1 | – | IFO 3301 | 200 µg/disc, 24 h, 37 °C | – | inhibition zone diameter | < 10 mm
[Cl-].[Cl-].[Ru+2].c1ccc2nc3c4cccnc4c4ncccc4c3nc2c1.c1ccncc1.c1ccncc1.c1ccncc1.c1ccncc1 | – | – | LED irradiation 470 nm | – | MIC90 | 16 µM
c1ccc(CN2CCOCCOCCN(CCCCCCCCCCCCCCN3CCOCCOCCN(CCCCCCCCCCCCCCN4CCOCCOCCN(Cc5ccccc5)CCOCCOCC4)CCOCCOCC3)CCOCCOCC2)cc1 | K+ selective electrode | tetracycline-resistant | 10 µM | relative to: total potassium | potassium release | > 80%
[Cl-].[Cl][Ru-4]123([n+]4ccccc4-c4cc(-c5ccccc5)cc([n+]41)-c1cccc[n+]12)[n+]1ccc(-c2ccccc2)c2ccc4c(-c5ccccc5)cc[n+]3c4c21 | bacterial cytological profiling | BL21(DE3) | MIC, 24 h | – | average filament length | 94 µm
CC[C@H](C)[C@H](NC(=O)[C@H](CS)NC(=O)[C@@H](NC(=O)[C@@H]1CCCN1C(=O)[C@H](Cc1ccccc1)NC(=O)[C@H](CC(N)=O)NC(=O)[C@@H](NC(=O)[C@H](CC(=O)O)NC(=O)CCNC(=O)CNC(=O)O[C@H]1CC[C@@]2(C)C(=CC[C@H]3[C@@H]4CC[C@H]([C@H](C)CCCC(C)C)[C@@]4(C)CC[C@@H]32)C1)[C@@H](C)O)[C@@H](C)CC)C(=O)N[C@@H](Cc1ccccc1)C(N)=O | – | mouse, pulmonary macrophages | intratracheal, 25 nmol per mouse, 12 h | – | amphiregulin protein level | increased
CC(=O)N[C@H]1[C@H](Oc2ccccc2-c2cccc(C(=O)O)c2)O[C@H](CO)[C@H](O)[C@@H]1O | – | UPEC CFT073, C3H/HeN mice, chronic cystitis, bladder | transurethral, 50 mg/kg, 6 h posttreatment | relative to: vehicle | bacterial burden | decreased

Repeated from above:
Compound | assay | test system | conditions | scale | quantity | value
CC(CCCOC(=O)CCC[N+](C)(C)C)C1CCC2C3CCC4CC(OC(=O)CCC[N+](C)(C)C)CCC4(C)C3CC(OC(=O)CCC[N+](C)(C)C)C12C (stereo not shown) | outer membrane permeabilization, nitrocefin hydrolysis | – | 90 min | – | permeabilizing concentration | ≥ 15.6 µg/mL
c1ccc(CN2CCOCCOCCN(CCCCCCCCCCCCN3CCOCCOCCN(CCCCCCCCCCCCN4CCOCCOCCN(Cc5ccccc5)CCOCCOCC4)CCOCCOCC3)CCOCCOCC2)cc1 | tetracycline MIC, checkerboard | tetracycline-resistant (pBR322) | 1/2 MIC, with: tetracycline | relative to: MIC alone over combination | fold enhancement | 16 fold
